Results gathered from unrelated publications.
Lines come from different studies, so protocols differ.
Target: Inhibitor of nuclear factor kappa-B kinase subunit beta (IKBKB, Homo sapiens, UniProt O14920)
One construct used (O14920 1-756): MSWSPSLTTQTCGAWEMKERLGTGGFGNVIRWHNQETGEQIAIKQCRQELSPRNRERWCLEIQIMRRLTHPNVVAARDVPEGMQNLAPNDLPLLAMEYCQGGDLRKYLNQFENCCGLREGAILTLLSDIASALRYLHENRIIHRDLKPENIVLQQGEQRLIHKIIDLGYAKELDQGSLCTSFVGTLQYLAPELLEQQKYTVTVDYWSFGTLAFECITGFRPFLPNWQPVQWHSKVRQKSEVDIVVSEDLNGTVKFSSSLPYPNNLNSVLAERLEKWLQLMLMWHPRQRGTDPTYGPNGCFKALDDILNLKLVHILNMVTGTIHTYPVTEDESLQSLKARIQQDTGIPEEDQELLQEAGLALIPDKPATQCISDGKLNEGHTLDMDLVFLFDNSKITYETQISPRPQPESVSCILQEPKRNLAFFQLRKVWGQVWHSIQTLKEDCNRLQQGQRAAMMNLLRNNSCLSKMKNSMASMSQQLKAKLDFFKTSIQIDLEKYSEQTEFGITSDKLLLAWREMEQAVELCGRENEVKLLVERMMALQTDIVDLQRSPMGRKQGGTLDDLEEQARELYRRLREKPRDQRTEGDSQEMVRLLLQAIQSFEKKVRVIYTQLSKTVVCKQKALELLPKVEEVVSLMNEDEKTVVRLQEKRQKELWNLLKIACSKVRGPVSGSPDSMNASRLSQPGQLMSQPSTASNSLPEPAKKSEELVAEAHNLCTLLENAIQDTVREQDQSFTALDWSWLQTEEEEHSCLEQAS

| Compound | assay | conditions | scale | measurement | value |
| --- | --- | --- | --- | --- | --- |
| CC(C)[C@H]1NC(=O)C[C@H]2/C=C/CCSSC[C@@H](NC1=O)C(=O)N[C@H](Cc1cccc3ccccc13)C(=O)NCC(=O)O2 | enzyme activity, inhibitor | 10 µM | – | inhibition | 1.3% |
| O=C1NC(=O)c2c1c1cc(F)c[n+]3c1c1c2c2cc(O)ccc2[n]1[Ru-4]312([N]=C=S)[S+]3CC[S+]1CC[S+]2CC3 (stereo not drawn) | enzyme activity | 100 nM, human enzyme, added: 10 µM ATP | baseline: untreated | remaining activity | 83% |
| CCOC(=O)[C@@H]1Cc2c(cc([N+](=O)[O-])cc2[N+](=O)[O-])[C@H](O)[C@]12C(=O)Nc1ccc(Br)cc12 | binding, competition with immobilised ligand | 0.1 µM | – | remaining binding | 100% |
| Nc1ccc(/C=C/C(=O)N2CCc3c(oc4c(-c5ccc(F)cc5)cc(-c5ccc(C(=O)N6CCC(F)(F)CC6)cn5)cc34)C2)cn1 | binding, competition with immobilised ligand | 1 µM | – | remaining binding | 100% |
| O=C(O)c1ccccc1/C=N/Nc1nc(-c2ccccc2Cl)cs1 | enzyme activity, inhibitor | 1 µM | – | inhibition | -23.9% |
| CN(C)[C@H]1C[C@@]23CC[C@@]4(O2)C(=CC[C@]2(C)[C@@H](c5ccc6ccncc6c5)CC[C@H]24)C=C3[C@@H](O)[C@@H]1O | ATP probe labelling, inhibitor, KiNativ profiling | 0.1 µM | – | inhibition | -2.5% |
| CN(/N=C/c1ccccc1C(=O)O)c1nc(-c2ccccc2Cl)cs1 | enzyme activity, inhibitor | 1 µM | – | inhibition | -18.7% |
| C[C@H](NCc1ccc(-c2ccc(C(F)(F)F)cc2)cc1)C(N)=O | cell-free assay, competition with immobilised ligand | 1 µM | – | inhibition | 12% |
| CS(C)(=O)=Nc1ccc(-c2ccc(-c3nc4cc(O[C@@H]5CO[C@H]6[C@@H]5OC[C@H]6O)[nH]c4cc3F)cc2)cc1 | enzyme activity, inhibitor | 10 µM | – | inhibition | -6% |
